Results pooled from the literature.
“And” joins repeats or separate records; there may be more than shown. Numbers after ± are the reported error.
niaR K97A: niaR 1-174 K97A (Streptococcus mutans, UniProt Q8DVX8)
B1: CXCL16; sequence looked up; chain NEGSVTGSCYCGKRISSDSPPSVQFMNRLRKHLRAYHRCLYYTRFQLLSWSVCGGNKDPWVQELMSCLDLKECGHAYSGIVAHQKHLLPTSPPISQASEGASSDIHTPAQMLLSTLQSTQRPTLPVGSLSSDKELTRPNETTIHTAGHSLAAGPEAGENQKQPEKNAGPTARTSATVPVLCLLAIIFILTAALSYVLCKRRRGQSPQSSPDLPVHYIPVAPDSNT
B2: Lqq V toxin, rhodamine on Lys60 (Leiurus quinquestriatus quinquestriatus, UniProt P01481); ends and bridges not checked; also: 125I-labelled, site not given here; rhodamine on Lys60; chain LKDGYIVDDKNCTFFCGRNAYCNDECKKKGGESGYCQWASPYGNACWCYKLPDRVSIKEK(6‑carboxytetramethylrhodamine acetamide)GRCN
Sequence of UniProt P04775 (whole entry, looked up): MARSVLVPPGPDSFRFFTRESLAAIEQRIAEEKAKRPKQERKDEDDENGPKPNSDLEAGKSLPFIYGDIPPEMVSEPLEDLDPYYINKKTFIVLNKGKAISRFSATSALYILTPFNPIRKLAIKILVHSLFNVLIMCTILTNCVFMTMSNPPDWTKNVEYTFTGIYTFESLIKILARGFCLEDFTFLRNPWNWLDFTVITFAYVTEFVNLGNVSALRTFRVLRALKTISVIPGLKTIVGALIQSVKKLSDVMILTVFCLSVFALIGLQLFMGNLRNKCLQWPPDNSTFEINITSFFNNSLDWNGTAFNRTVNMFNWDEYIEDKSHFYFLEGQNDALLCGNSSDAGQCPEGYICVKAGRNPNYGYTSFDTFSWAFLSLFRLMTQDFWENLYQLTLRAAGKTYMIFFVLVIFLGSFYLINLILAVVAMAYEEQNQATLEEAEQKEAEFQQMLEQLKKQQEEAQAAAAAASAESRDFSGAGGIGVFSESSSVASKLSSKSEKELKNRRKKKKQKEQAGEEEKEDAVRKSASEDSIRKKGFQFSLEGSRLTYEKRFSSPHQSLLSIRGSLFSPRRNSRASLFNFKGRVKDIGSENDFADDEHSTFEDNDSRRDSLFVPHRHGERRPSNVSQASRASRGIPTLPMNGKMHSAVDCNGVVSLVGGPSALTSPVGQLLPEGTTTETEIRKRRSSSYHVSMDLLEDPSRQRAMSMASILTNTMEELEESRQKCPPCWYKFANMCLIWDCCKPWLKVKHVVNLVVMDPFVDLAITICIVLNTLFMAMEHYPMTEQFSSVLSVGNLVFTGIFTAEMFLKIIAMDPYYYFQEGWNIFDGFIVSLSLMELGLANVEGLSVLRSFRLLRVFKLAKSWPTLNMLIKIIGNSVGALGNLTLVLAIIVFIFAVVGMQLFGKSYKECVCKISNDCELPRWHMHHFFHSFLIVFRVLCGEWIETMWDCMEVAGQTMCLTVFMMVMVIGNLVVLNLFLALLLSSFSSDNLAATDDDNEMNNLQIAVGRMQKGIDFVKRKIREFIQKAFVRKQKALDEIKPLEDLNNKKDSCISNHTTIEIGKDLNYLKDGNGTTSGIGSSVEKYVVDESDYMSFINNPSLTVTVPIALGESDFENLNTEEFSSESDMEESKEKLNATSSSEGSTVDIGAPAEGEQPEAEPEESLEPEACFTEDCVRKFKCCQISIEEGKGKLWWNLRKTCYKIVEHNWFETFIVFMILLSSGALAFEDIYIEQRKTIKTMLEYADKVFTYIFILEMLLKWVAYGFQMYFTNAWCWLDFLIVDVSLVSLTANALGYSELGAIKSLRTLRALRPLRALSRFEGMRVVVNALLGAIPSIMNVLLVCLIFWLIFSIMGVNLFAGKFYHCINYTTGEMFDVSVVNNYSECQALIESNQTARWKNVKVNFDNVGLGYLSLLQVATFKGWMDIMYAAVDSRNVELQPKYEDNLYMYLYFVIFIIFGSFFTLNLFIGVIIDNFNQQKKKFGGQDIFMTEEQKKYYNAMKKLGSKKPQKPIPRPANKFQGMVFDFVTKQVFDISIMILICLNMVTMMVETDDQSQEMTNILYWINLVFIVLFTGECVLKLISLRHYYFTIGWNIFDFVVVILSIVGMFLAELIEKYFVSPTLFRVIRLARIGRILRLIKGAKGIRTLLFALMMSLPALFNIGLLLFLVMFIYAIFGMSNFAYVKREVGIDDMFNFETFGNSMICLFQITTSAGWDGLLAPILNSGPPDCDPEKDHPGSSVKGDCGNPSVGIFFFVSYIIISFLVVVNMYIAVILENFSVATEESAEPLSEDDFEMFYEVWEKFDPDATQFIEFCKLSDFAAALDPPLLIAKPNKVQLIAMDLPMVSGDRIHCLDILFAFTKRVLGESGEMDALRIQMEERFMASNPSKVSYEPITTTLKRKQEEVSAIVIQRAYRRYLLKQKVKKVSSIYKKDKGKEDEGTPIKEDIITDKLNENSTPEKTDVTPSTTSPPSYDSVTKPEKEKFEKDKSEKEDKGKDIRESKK
Sequence of UniProt P08603 (whole entry, unmodified, looked up): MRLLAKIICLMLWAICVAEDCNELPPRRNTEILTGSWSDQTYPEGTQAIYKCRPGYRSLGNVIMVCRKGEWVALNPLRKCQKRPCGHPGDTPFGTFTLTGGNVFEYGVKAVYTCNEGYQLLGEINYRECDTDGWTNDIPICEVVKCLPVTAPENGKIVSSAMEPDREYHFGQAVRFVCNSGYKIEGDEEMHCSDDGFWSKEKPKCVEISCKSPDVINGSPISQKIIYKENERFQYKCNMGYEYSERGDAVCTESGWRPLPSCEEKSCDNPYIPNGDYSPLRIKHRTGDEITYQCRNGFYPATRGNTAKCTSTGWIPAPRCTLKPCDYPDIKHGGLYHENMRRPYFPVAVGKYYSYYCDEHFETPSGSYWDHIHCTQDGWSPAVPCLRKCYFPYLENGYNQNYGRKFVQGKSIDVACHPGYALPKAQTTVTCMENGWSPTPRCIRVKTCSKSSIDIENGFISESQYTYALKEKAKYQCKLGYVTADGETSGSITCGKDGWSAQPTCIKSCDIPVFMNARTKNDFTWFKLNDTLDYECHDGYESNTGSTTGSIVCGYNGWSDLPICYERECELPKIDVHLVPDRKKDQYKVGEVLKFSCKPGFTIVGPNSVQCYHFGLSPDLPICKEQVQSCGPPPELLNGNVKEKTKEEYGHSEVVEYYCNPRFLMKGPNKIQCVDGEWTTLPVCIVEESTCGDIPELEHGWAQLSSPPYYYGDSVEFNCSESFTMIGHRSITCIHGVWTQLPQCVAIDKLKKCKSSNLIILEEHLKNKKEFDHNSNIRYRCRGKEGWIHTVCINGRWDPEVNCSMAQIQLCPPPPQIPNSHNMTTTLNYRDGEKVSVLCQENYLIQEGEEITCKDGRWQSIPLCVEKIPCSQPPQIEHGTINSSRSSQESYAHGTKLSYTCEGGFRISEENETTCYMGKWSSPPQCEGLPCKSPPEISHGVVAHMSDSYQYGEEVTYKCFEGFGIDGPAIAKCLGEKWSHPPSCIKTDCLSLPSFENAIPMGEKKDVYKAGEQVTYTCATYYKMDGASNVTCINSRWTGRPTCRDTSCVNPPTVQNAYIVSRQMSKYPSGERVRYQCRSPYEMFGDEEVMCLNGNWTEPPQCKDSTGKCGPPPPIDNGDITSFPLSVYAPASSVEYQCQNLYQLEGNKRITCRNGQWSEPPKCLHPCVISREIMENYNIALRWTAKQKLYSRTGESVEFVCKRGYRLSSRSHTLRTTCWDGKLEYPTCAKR

| Substance | target or system | assay | test system | conditions | how to read | measurement | value |
| --- | --- | --- | --- | --- | --- | --- | --- |
| CC(C)C(=O)Nc1ncncc1-c1cn([C@@H]2O[C@](F)(COC(=O)C(C)C)[C@@H](OC(=O)C(C)C)[C@H]2OC(=O)C(C)C)cn1 | Zaire ebolavirus | viral replication, reporter virus | Huh-7 | 72 h | – | IC50 | > 100 µM |
| GGUGUAAAUUGUCCUUUUUGUAACUUUAAUUCCUUGUACUUAAUAUCAUUUAUUGAAUUUACUGCUCUAGAUAAAGUACCUACUUCUCUUAAUAUAUUACUAUCUAAAGUCUUAAUCAAACACACCUCCACUGAAACUACCAUGGCUAAAGUCAAAUAGUUUCUGUUUUAUAGAAUUUCACAUAAUCAAUAUUUUCAUUUUUAGUUGAAAGUUCAACUUUUUUAAAUUUUACCAU (structured RNA) | CD25890 1-293 E254A/E258A (Clostridioides difficile, UniProt Q182S9) | EMSA | – | – | – | binding | binds |
| COc1ncc(-c2cn([C@@H]3O[C@](F)(CO[P@@](=O)(N[C@@H](C)C(=O)OC(C)C)Oc4ccccc4)[C@@H](OC(=O)C(C)C)[C@H]3OC(=O)C(C)C)cn2)c(OC)n1 | Zaire ebolavirus | viral replication, reporter virus | Huh-7 | 72 h | – | IC50 | > 100 µM |
| RPPIFIRRL | – | T-cell response | peptide, CD8+ T cells, HLA-A*02:01 unexposed humans | – | – | number of clonotypes | 0 |
| COc1nc(N)ncc1-c1cn([C@@H]2O[C@](F)(CO[P@@](=O)(N[C@@H](C)C(=O)OC(C)C)Oc3ccccc3)[C@@H](OC(=O)C(C)C)[C@H]2OC(=O)C(C)C)cn1 | Zaire ebolavirus | viral replication, reporter virus | Huh-7 | 72 h | – | IC50 | > 100 µM |
| quinacrine mustard | Dengue virus type 2 | viral replication, Rluc reporter replicon | BHK-21 with DENV2 replicon | 50 µM, 24 h | – | inhibition | 99.9 ± 0.01% |
| B1 (CXCL16) | Human immunodeficiency virus 1 | TZM-bl readout | PHA-stimulated human PBMCs, CCR5-tropic | 500 ng/mL | – | viral replication | no effect |
| AaH II scorpion toxin | rat Nav1.2a VSD IV paddle peptide | surface plasmon resonance | – | 100 nM, pH 7.2, 25 °C, 0.1% BSA | – | SPR binding response | 40 to 60 RU |
| trehalose dimycolate | – | flow cytometry | C57BL/6 mice, lung | intravenous, 100 µg, day 5 | baseline: vehicle | alveolar macrophage frequency increase | 1 ± 1.1% |
| autoinducing peptide I | AgrC-I H239Q (Staphylococcus aureus) | reporter gene, agonist | Staphylococcus aureus P3-blaZ reporter, Staphylococcus aureus | – | – | EC50 | > 10 µM |
| GNDGGGGGE | dog DLA-88*508:01 | binding, flow cytometry | peptide | concentration not given | baseline: control | MHC stabilization | no binding |
| GTCTTTAATAATTAAACTAGTGTCTTGACAGATGTAAACAACAGGTATAAAC (dsDNA) | niaR K97A | EMSA | double-stranded DNA, one strand shown | – | – | binding | no binding |
| B2 | Scn2a whole channel (Rattus norvegicus, UniProt P04775) | equilibrium binding | peptide, rat cortical neurons | – | – | Kd | 0.007 µM |
| cbpA fragment (Streptococcus pneumoniae) | CFH 508-567 M497E (Homo sapiens, UniProt P08603) | ITC | – | – | – | ΔH | -15.5 ± 0.32 kcal/mol |
| COc1ncc(-c2cn([C@@H]3O[C@](F)(CO[P@@](=O)(N[C@@H](C)C(=O)OC(C)C)Oc4ccccc4)[C@@H](O)[C@H]3O)cn2)cn1 | Zaire ebolavirus | viral replication, reporter virus | Huh-7 | 72 h | – | IC50 | > 100 µM |
| QLTPTWRVY | – | – | peptide, tetramer-reactive CD8+ T cells, unexposed HLA-A*02:01 subjects | – | – | number of clonotypes | 0 |
| ILKEPVHGVY | KIR2DL2− 2DS2− 2DL3+ NK cells | NK cell response | peptide, human | concentration not given, with: peptide-pulsed RMA-S cells | baseline: no peptide | relative reactivity | 95.5% and 99.3% and 97.3% |
| LATNNLVVM | – | – | peptide, tetramer-reactive CD8+ T cells, unexposed HLA-A*02:01 subjects | – | – | number of clonotypes | 4 |
| COc1ncc(-c2cn([C@@H]3O[C@](F)(COC(=O)C(C)C)[C@@H](OC(=O)C(C)C)[C@H]3OC(=O)C(C)C)cn2)c(OC)n1 | Zaire ebolavirus | viral replication, reporter virus | Huh-7 | 72 h | – | IC50 | > 100 µM |
| α-dendrotoxin | Kv channel (rat) | radioligand binding, antagonist | – | – | – | Ki | 0.00022 µM |
| VGYLQPRTF | – | – | peptide, tetramer-reactive CD8+ T cells, unexposed HLA-A*02:01 subjects | – | – | number of clonotypes | 1 |
| TFFRLFNRSFTGRRRRSVQWCA | Streptococcus mutans | 2D-DIGE, refers to: hypothetical protein SMU.689 | peptide, UA159 | 20 µg/mL, 1 h | baseline: water control | protein level ratio | -17.5 |
| EEFEPSTQYEY | – | – | peptide, tetramer-reactive CD8+ T cells, COVID-19 convalescent HLA-B*07:02 subjects | – | – | number of clonotypes | 2 |
| TTTATAAAAAACCAATATATGTCTTGACACATGTAAAAAACGTTGTATAATG (dsDNA) | niaR K97A | EMSA | double-stranded DNA, one strand shown | – | – | binding | no binding |

Some of these lines once more:
| Substance | target or system | assay | test system | conditions | how to read | measurement | value |
| --- | --- | --- | --- | --- | --- | --- | --- |
| QLTPTWRVY | – | – | peptide, tetramer-reactive CD8+ T cells, unexposed HLA-A*02:01 subjects | – | – | number of clonotypes | 0 |
| α-dendrotoxin | Kv channel (rat) | radioligand binding, antagonist | – | – | – | Ki | 0.00022 µM |
